{"data": "Measurements collected from several papers", "note": "Numbered parts are unrelated; each lists some results of a single study.", "chain of UniProt Q8IVW4 (whole entry, looked up)": "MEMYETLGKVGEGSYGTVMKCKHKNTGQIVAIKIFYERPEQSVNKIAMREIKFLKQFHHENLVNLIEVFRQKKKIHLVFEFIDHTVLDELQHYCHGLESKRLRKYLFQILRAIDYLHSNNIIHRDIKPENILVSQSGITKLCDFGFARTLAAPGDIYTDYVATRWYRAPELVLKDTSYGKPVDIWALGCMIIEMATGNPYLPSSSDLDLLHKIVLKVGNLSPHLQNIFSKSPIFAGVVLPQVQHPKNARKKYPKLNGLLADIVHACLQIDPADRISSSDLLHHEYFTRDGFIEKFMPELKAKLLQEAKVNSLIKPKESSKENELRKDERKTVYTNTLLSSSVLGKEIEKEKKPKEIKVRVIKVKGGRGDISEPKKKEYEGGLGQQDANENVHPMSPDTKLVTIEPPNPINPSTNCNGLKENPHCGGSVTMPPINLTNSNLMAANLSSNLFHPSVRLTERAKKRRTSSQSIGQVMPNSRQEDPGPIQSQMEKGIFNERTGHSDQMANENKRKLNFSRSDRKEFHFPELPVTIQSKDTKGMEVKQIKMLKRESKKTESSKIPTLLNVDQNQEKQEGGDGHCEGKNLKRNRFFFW", "chain of UniProt Q8TBX8 (whole entry, looked up)": "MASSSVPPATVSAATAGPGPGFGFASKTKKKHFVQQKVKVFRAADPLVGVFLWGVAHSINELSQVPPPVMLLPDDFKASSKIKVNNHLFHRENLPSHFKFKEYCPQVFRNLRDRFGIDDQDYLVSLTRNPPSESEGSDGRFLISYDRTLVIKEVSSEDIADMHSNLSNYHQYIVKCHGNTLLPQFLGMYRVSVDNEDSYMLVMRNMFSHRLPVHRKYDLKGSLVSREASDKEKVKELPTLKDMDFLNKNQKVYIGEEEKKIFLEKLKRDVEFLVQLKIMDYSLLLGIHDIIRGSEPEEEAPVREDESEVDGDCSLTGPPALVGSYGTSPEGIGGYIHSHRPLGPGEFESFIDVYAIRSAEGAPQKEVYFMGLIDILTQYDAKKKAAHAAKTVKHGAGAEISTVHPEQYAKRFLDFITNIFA", "chain of UniProt Q8NI60 (whole entry, looked up)": "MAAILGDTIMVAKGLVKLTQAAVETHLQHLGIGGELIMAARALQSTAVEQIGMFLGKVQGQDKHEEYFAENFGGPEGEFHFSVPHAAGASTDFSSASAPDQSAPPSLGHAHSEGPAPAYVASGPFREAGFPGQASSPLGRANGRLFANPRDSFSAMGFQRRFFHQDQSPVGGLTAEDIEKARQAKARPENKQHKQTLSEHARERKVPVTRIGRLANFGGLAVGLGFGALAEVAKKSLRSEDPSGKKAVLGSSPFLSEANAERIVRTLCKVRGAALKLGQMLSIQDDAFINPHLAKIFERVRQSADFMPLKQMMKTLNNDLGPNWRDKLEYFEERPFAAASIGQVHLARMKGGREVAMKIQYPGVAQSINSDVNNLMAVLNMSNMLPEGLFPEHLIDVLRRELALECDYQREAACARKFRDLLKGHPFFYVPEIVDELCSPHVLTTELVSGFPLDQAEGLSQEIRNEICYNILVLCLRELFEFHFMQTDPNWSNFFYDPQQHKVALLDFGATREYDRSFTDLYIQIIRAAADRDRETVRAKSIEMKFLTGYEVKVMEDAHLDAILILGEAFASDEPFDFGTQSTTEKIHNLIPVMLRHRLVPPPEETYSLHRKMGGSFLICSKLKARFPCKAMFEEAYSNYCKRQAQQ", "chain of UniProt Q9BX84 (whole entry, looked up)": "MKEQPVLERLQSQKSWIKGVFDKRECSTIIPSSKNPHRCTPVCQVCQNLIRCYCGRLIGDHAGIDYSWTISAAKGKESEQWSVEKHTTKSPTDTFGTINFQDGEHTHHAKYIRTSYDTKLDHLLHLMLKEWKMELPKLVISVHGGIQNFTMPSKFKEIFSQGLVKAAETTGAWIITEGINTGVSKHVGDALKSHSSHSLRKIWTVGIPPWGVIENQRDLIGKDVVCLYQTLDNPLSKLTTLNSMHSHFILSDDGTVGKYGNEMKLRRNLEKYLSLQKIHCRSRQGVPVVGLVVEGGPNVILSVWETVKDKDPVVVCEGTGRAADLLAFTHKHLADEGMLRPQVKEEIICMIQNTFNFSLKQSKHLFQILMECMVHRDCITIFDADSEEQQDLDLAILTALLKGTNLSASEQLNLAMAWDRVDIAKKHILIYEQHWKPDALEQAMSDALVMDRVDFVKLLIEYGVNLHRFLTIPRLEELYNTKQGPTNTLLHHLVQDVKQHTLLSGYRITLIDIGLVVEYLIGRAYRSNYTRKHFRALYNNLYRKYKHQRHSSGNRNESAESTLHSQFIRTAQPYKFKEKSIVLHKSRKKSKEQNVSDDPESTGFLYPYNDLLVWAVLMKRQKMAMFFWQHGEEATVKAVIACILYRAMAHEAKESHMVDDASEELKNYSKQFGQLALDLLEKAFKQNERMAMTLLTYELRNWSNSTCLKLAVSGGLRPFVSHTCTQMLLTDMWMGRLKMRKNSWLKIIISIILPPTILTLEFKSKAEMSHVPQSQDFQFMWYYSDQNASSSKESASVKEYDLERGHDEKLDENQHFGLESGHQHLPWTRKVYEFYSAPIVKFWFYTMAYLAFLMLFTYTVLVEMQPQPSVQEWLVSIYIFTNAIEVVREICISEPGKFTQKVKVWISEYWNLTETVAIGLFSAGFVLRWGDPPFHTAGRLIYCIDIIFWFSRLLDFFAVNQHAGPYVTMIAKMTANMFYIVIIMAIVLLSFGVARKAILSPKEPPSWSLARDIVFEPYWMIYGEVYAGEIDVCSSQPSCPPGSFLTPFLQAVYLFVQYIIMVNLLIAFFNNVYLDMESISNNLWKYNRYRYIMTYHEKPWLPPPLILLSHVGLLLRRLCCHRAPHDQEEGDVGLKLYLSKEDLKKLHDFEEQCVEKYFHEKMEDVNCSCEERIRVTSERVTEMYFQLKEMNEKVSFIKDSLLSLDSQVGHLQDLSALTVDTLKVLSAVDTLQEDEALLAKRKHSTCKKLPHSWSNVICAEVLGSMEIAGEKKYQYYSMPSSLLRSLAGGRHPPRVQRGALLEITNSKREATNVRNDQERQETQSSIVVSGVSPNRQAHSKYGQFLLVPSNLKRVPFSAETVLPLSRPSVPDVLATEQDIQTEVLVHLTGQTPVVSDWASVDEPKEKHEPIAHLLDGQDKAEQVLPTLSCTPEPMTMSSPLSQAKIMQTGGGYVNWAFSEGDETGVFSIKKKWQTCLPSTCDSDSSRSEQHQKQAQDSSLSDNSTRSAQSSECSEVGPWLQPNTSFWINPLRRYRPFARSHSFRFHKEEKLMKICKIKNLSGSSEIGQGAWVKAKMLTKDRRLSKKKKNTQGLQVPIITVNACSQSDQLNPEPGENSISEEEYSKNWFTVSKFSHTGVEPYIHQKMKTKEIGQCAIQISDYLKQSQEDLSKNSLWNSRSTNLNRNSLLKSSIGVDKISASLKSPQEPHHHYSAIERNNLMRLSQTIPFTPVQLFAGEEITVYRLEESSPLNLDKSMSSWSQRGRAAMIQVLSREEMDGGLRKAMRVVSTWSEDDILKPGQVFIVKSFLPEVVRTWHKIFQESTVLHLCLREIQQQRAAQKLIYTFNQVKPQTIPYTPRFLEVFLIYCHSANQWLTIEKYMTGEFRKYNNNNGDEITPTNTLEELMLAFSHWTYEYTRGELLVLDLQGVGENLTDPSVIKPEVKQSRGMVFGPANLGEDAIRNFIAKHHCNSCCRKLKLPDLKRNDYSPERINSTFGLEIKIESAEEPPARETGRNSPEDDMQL", "chain of UniProt Q9BQI3 (whole entry, looked up)": "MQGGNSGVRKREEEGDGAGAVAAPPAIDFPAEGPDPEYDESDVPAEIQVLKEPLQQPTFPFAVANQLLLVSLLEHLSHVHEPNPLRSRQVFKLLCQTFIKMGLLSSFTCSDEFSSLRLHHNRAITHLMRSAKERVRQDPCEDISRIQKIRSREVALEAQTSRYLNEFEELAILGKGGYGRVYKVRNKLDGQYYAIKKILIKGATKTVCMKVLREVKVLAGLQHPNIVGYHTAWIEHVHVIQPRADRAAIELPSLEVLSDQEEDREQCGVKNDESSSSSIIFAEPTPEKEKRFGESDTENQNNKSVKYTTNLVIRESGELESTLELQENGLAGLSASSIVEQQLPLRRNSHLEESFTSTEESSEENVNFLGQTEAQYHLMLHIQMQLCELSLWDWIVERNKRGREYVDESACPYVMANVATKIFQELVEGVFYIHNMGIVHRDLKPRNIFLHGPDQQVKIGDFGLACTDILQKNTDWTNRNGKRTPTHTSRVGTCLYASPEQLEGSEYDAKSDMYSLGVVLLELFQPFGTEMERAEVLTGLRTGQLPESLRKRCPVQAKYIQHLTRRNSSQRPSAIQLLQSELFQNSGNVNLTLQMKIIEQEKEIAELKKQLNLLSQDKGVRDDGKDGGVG", "chain of UniProt Q8NE63 (whole entry, looked up)": "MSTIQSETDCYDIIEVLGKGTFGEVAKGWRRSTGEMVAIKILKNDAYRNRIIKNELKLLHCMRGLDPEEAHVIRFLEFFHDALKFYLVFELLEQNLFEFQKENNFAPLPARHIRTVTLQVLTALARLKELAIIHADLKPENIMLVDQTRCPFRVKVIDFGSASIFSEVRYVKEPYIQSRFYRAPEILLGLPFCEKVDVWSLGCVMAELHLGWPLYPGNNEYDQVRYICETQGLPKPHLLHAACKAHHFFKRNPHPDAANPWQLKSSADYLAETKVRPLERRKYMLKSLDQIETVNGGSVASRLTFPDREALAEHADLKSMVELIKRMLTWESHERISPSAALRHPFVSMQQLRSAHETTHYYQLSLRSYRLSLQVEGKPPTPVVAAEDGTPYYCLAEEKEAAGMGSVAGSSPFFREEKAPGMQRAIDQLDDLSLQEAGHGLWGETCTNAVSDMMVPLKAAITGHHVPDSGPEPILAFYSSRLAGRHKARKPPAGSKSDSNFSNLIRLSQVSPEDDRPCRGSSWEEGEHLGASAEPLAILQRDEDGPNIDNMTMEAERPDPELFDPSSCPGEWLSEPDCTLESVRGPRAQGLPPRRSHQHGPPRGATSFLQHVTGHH"}
{"data": "Block 1", "species": "mouse", "medium": "microsomes or S9", "concentration": "2 µM", "time": "0.5 h"}
{"Compound": "Cc1cc2c(cc1C(=O)N=C(N)N)C(Br)=CC(C)(C)O2", "remaining compound [%]": 38.5}
{"Compound": "O=c1[nH]c(NN2CCOCC2)nnc1Cc1ccc(Cl)cc1", "remaining compound [%]": 36.6}
{"Compound": "Cn1c(=O)n(-c2ccccn2)c(=O)c2c3c(sc21)COC(C)(C)C3", "remaining compound [%]": 91.3}
{"Compound": "Clc1ccc(Nc2ccc(-n3ccnc3)nn2)cc1", "remaining compound [%]": 17.8}
{"Compound": "CC1CCCN(c2ncc(CN(Cc3ccccc3)C3CCN(C)CC3)cn2)C1 (stereo not shown)", "remaining compound [%]": 2.24}
{"Compound": "COc1ccc(-c2c(-c3ccccc3)nn(-c3cccc4ccccc34)c2N(C)C)cc1OC", "remaining compound [%]": 1.06}
{"Compound": "O=C(c1ccccc1)c1cc2occ(-c3ccccc3)c2cc1O", "remaining compound [%]": 1.62}
{"Compound": "c1ccc(-c2cc3cc(-c4ccccc4)[nH]c3cn2)cc1", "remaining compound [%]": 4.48}
{"Compound": "COC(=O)C(O)c1cnc2c(c1-c1ccc(Cl)cc1)C(C)(C)CN(Cc1ccc(OC)cc1)C2=O (stereo not shown)", "remaining compound [%]": 71.1}
{"Compound": "CC(C)COc1cc(=O)n2c(c1C(=O)N(C)CCc1ccccn1)CCCCC2", "remaining compound [%]": 19}
{"data": "Block 2", "target": "RNA binding protein fox-1 homolog 2, RRM domain, GST-SBP tag (RBFOX2, Homo sapiens, UniProt O43251-10, residues 100-194)", "technique": "RNA Bind-n-Seq", "molecule type": "RNA", "medium": "in vitro", "concentration": "365 nM", "notes": "natural RNA segment, single round, ends assumed", "baseline": "no-protein control", "reading": "higher = stronger binding", "constant ends, left off below": "GGGAGUUCUACAGUCCGACGAUC … UGGAAUUCUCGGGUGCCAA", "Residues (chain)": "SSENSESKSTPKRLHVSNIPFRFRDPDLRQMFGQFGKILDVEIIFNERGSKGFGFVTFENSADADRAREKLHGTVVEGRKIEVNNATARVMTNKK"}
{"Sequence": "AUCUGUAUAUAUUAUUUGAUAUUCAGAGAAUCUAAAGCACUCGUCUACUGUUUUAAUGAGAUUUAACAGCUUUUAACAGUGAGUUUCGUUUGUAAACUGCUUGAAGUCUG", "RBNS enrichment (R)": 0.324}
{"Sequence": "UGCAGUUUGUGCGGCAGAUUGCUCUGCCAAGAUACUUGAACACUGUGUUUUAUUGUGGUAAUUAUGUUUUGUGAUUCAAACUUCUGUGUACUGGGUGAUGCACCCAUUGU", "RBNS enrichment (R)": 1.12}
{"Sequence": "GGAUGUAUUCCAGAGCCUGAUGUUUUUAUUCAAACCACAGAAAAGUUUUCUUUAAGUAGCCUGUGCAGUCAUGCAUGUGCCUGAGUUGUCUGGAGCAGAGGCAAACAUCU", "RBNS enrichment (R)": 1.65}
{"Sequence": "UGGGUGUCUGAGGAUGGCAGCACUGUCGCUGACAUUGCCACUUCUCCAAAGAAAGCCAUGCUAAGACUGGGACCAGCCCCUCGUUAGCAUGUCUCCCUGCCACCUGUCAC", "RBNS enrichment (R)": 0.34}
{"Sequence": "UUAAUCAGGCUGUCUUGGAAGGGUAUUGUAUUGGGAGACAAGGGGCGGUGGUGGACCUCACCUUCAAUCCAAGUUUUCAAAGAUAUUUUCUCAAUAACUCUAAAAGGGAG", "RBNS enrichment (R)": 0.323}
{"Sequence": "UGAGAGGUAACAAAUAGGGAGAUACGGGUUGAGACUGCAUAAAAAACGUACUGCUGGUUGAAUAUCUGAGGUAAAUGAUGUUUAAUCAAGAUGCUACUUGUAUCUUUGUC", "RBNS enrichment (R)": 0.6}
{"Sequence": "GCAUGAAACCAACCGAGUUGAUUUUUAUCUGAGCGCUUGUAGAGGGCUUCGUGUGCCUGUUGGACCAUUAGUUCUUUUAACUGUAUAUGCAAUAACAAGGUUUUAAAAGA", "RBNS enrichment (R)": 1.88}
{"Sequence": "AUCCCAAAGAGGCCCUGUGUCUACCAGGAGCUUCUUUUUCCAAAUGUAAUGGAUUAUGUGGAAUUGUAGUGCCAUCGGUUUUUACUUAGAGCCCUUGACGUGCUUGGACC", "RBNS enrichment (R)": 0.315}
{"data": "Block 3", "Structure (SMILES)": "O=C1NC(c2ccccn2)Sc2ccccc21 (stereo not shown)", "read-out": "cell-free assay", "technique": "competition with immobilised ligand", "concentration": "1 µM"}
{"target": "Transient receptor potential cation channel subfamily M member 6 (TRPM6, Homo sapiens, UniProt Q9BX84)", "remaining binding [%]": 64}
{"target": "Serine/threonine-protein kinase 17A (STK17A, Homo sapiens, UniProt Q9UEE5)", "remaining binding [%]": 86}
{"target": "Phosphatidylinositol 5-phosphate 4-kinase type-2 gamma (PIP4K2C, Homo sapiens, UniProt Q8TBX8)", "remaining binding [%]": 100}
{"target": "Eukaryotic translation initiation factor 2-alpha kinase 1 (EIF2AK1, Homo sapiens, UniProt Q9BQI3)", "remaining binding [%]": 79}
{"target": "Atypical kinase COQ8A, mitochondrial (COQ8A, Homo sapiens, UniProt Q8NI60)", "remaining binding [%]": 98}
{"target": "Serine/threonine-protein kinase ULK1 (ULK1, Homo sapiens, UniProt O75385)", "remaining binding [%]": 100}
{"target": "Serine/threonine-protein kinase BRSK2 (BRSK2, Homo sapiens, UniProt Q8IWQ3)", "remaining binding [%]": 100}
{"target": "Phosphatidylinositol 4,5-bisphosphate 3-kinase catalytic subunit alpha isoform (PIK3CA, Homo sapiens, UniProt P42336, I800L)", "remaining binding [%]": 80}
{"target": "Insulin receptor (INSR, Homo sapiens, UniProt P06213)", "remaining binding [%]": 88}
{"target": "Serine/threonine-protein kinase PLK4 (PLK4, Homo sapiens, UniProt O00444)", "remaining binding [%]": 76}
{"target": "Mitogen-activated protein kinase kinase kinase 20 (MAP3K20, Homo sapiens, UniProt Q9NYL2)", "remaining binding [%]": 100}
{"target": "Homeodomain-interacting protein kinase 4 (HIPK4, Homo sapiens, UniProt Q8NE63)", "remaining binding [%]": 70}
{"target": "Phosphatidylinositol 3-kinase C2 domain-containing subunit gamma (PIK3C2G, Homo sapiens, UniProt O75747)", "remaining binding [%]": 100}
{"target": "Cyclin-dependent kinase-like 3 (CDKL3, Homo sapiens, UniProt Q8IVW4)", "remaining binding [%]": 88}
{"target": "Phosphatidylinositol 4-phosphate 5-kinase type-1 gamma (PIP5K1C, Homo sapiens, UniProt O60331)", "remaining binding [%]": 77}
{"data": "Further values, each from its own experiment"}
{"SMILES": "CC(C)(S)[C@@H](N)C(=O)O", "organism": "Sarcocystis neurona", "test": "parasite activity", "setting": "10 µM, 96 h", "quantity": "activity class", "result": "inactive"}
{"note": "A few entries again (block 3):"}
{"target": "Eukaryotic translation initiation factor 2-alpha kinase 1 (EIF2AK1, Homo sapiens, UniProt Q9BQI3)", "remaining binding [%]": 79}
{"target": "Insulin receptor (INSR, Homo sapiens, UniProt P06213)", "remaining binding [%]": 88}
